Results from different studies.
Compare with care: the assays were run in different laboratories. ± gives the spread as reported.

C[C@H]1C(OCCCCCCCC[P+](c2ccccc2)(c2ccccc2)c2ccccc2)O[C@@H]2O[C@@]3(C)CCC4[C@H](C)CCC1[C@]42OO3 (stereo partly shown)  IC50 (HUVEC; cell viability, MTT; 72 h): 0.252 ± 0.0311 µM
CC(C)OC(=O)C(n1cccn1)n1cccn1.F[P-](F)(F)(F)(F)F.[Cu+].c1ccc(P(c2ccccc2)c2ccccc2)cc1  IC50 (LoVo; cell growth or viability, MTT; 72 h): 6.6 µM
F[P-](F)(F)(F)(F)F.OCP(CO)CO.OCP(CO)CO.OCP(CO)CO.OCP(CO)CO.[Cu+]  IC50 (LoVo; cell growth or viability, MTT; 48 h): 1.37 µM
N=C(N)NCCC[C@H](NC(=O)[C@H](CCCNC(=N)N)NC(=O)[C@@H]1CCCN1C(=O)[C@H](CCCNC(=N)N)NC(=O)[C@H](CCCNC(=N)N)NC(=O)[C@H](CCCNC(=N)N)NC(=O)[C@H](Cc1c[nH]c2ccccc12)NC(=O)[C@H](CCCNC(=N)N)NC(=O)[C@H](CCCNC(=N)N)NC(=O)[C@H](CCCNC(=N)N)NC(=O)[C@H](CCCNC(=N)N)NC(=O)[C@H](CCCNC(=N)N)NC(=O)[C@H](Cc1c[nH]c2ccccc12)NC(=O)[C@H](CCCNC(=N)N)NC(=O)[C@H](CCCNC(=N)N)NC(=O)[C@H](Cc1ccc(O)cc1)NC(=O)[C@H](CCCNC(=N)N)NC(=O)[C@H](CCCNC(=N)N)NC(=O)[C@H](CCCNC(=N)N)NC(=O)[C@@H](N)Cc1c[nH]c2ccccc12)C(N)=O  IC50 (BT-474; cell viability, CellTiter-Blue; 24 h, serum-free medium): 15.7 ± 1.5 µM
COCC12CN(C)C3C4C(OC)C1C3(C(OC)CC2O)C1CC2(O)C(O)C1C4(O)C(O)C2OC (stereo not shown)  IC50 (HBE; cell growth or viability, MTT): 20.2 µM
CCOC(=O)[C@H]1Cc2c(cc([N+](=O)[O-])cc2[N+](=O)[O-])[C@@H](O)[C@@]12C(=O)Nc1ccccc12  IC50 (T98G; cell growth or viability, MTT; 24 h): 62.4 µM
OC[C@H]1[C@@H](O)[C@@H](O)CN1Cc1ccccc1  IC50 (CEM-DNR daunorubicin resistant; MTS; 72 h): 93 ± 11 µM
CC(C)c1cccc(C(C)C)c1-n1c[n+](-c2c(C(C)C)cccc2C(C)C)c2c1-c1cccc3cccc-2c13.[Cl][Pd-]([Cl])[CH2]C=Cc1ccccc1  IC50 (NTERA2; cell growth or viability; 72 h, 3D culture): 48 µM
CC[C@H]1OC(=O)[C@H](C(C)C)NC(=O)[C@H](C)OC(=O)[C@@H](C(C)C)NC(=O)[C@@H](C(C)C)OC(=O)[C@H](C(C)C)NC(=O)[C@H](C)OC(=O)[C@@H](C(C)C)NC(=O)[C@@H](C(C)C)OC(=O)[C@H](C(C)C)NC(=O)[C@H](C)OC(=O)[C@@H](C(C)C)NC1=O  IC50 (SHG-44; cell growth or viability, SRB; 72 h): 0.3 µM
COCC12CN(C)C3C4C(OC)C1C3(C(OC)CC2O)C1CC2(O)C(OC)C(O)C4(OC(C)=O)C1C2OC(=O)c1ccccc1 (stereo not shown)  IC50 (NCI-H460; cell growth or viability, MTT): 15.6 µM
CNC(=O)c1cc(Oc2ccc(NC(=O)c3cc(-c4ccc(OC(=O)CCC(=O)OC5OC6OC7(C)CCC8C(C)CCC(C5C)C68OO7)cc4)ccn3)cc2)ccn1 (stereo not shown)  IC50 (L02; cell growth or viability, MTT; 72 h): 37.8 µM
Cc1cc(C)c(N2CCN(c3c(C)cc(C)cc3C)C2=[Se])c(C)c1.[Cl][Au]  IC50 (LoVo; cell growth or viability, MTT; 72 h): 1.6 µM
N[C@H](C(=O)N1CCCC1)C1CCN(c2nccc3c(-c4ncc(Cl)cc4Cl)cccc23)CC1  IC50 (human neutrophils; protein citrullination, flow cytometry, item: citrullinated histone H3; with: ionomycin 5 µM): 1 µM
Cc1cc(C)c(-n2c[n+](-c3c(C)cc(C)cc3C)c3c2-c2cccc4cccc-3c24)c(C)c1.[Cl][Pd-]([Cl])[CH2]C=Cc1ccccc1  IC50 (2008 spheroids; cell viability, APH; 3D spheroids; 72 h): 45 ± 5 µM
COc1cc(OC)cc(C2=C3c4ccccc4C(c4ccc(NC(=S)NCCOCCOCCOCCC(=O)N[C@@H](CC(C)C)C(=O)N[C@@H](C)C(=O)N[C@@H](CCCNC(=N)N)C(=O)N[C@@H](CC(C)C)C(=O)N[C@@H](CC(C)C)C(=O)N[C@H](C(N)=O)[C@@H](C)O)cc4)=[N+]3[B-](F)(F)n3c2c2ccccc2c3-c2ccc(NC(=S)NCCNC(=O)CCCC[C@@H]3SC[C@@H]4NC(=O)N[C@@H]43)cc2)c1  IC50 (HT-29; dark toxicity): 159 µM
C[C@H]1C(OCCCCCCCCCCC[P+](c2ccccc2)(c2ccccc2)c2ccccc2)O[C@@H]2O[C@@]3(C)CCC4[C@H](C)CCC1[C@]42OO3 (stereo partly shown)  IC50 (HUVEC; cell viability, MTT; 72 h): 0.148 ± 0.0093 µM
[Cl][Ag].[Se]=c1n(C2CCCCC2)ccn1C1CCCCC1  IC50 (human ovarian cancer cells; cell viability, MTT; 72 h): 3.3 ± 0.9 µM
O=S(=O)([O][Pt]([O]S(=O)(=O)C(F)(F)F)([PH](c1ccccc1)(c1ccccc1)c1ccc[cH-]1)[PH](c1ccccc1)(c1ccccc1)c1ccc[cH-]1)C(F)(F)F.[Fe+2]  IC50 (KB; cell growth, MTT; 24 h): 76.6 µM
CC[C@@]12CC[C@@H]3N(C)c4ccccc4[C@@]34CCN(C[C@H]3O[C@H]31)[C@@H]24  IC50 (BV-2; cell growth or viability, MTT): > 100 µM
Cc1cc(C)c(-n2ccn(-c3c(C)cc(C)cc3C)c2=[Se])c(C)c1.[Cl][Ag]  IC50 (LoVo; cell growth or viability, MTT; 72 h): 2.7 µM
C[C@@H]1CCC2[C@@H](C)[C@@H](OCCC[P+](c3ccccc3)(c3ccccc3)c3ccccc3)O[C@@H]3O[C@@]4(C)CCC1[C@@]23OO4 (stereo partly shown)  IC50 (J82; cell growth or viability, MTT; 72 h): 0.229 µM
O=C(/C=C/c1ccccc1)c1cc2ccccc2oc1=O  IC50 (Vero; cell viability, MTT; 48 h): 432 µM
O=C(Cc1ccc2ccccc2c1)N[C@H](Cc1ccccc1)C(=O)N[C@H](Cc1ccccc1)C(=O)N[C@H](Cc1ccc(OP(=O)(O)O)cc1)C(=O)N[C@H](Cc1ccc(OP(=O)(O)O)cc1)C(=O)O  IC50 (T98G; cell growth or viability, MTT): 357 µg/mL
COC(=O)CC[C@@H](NC(=O)[C@@H](Cc1ccc(OP(=O)(O)O)cc1)NC(=O)[C@@H](Cc1ccccc1)NC(=O)[C@@H](Cc1ccccc1)NC(=O)Cc1ccc2ccccc2c1)C(=O)OC  IC50 (OVSAHO; cell viability; day 3 (72 h)): < 20 µM
CCOC12C(O)C(OC)C3(O)CC(C1C3OC(=O)c1ccccc1)C13C(OC)CCC4(COC)CN(CC)C1C2C(OC)C43 (stereo not shown)  IC50 (HBE; cell growth or viability, MTT): 50.1 µM
O=C1CC2(C1)C(=O)[O][Pt]1([Cl])([O]C(=O)C(F)(F)F)([NH][C@@H]3CCCC[C@H]3[NH]1)[O]C2=O  IC50 (HUVEC; cell growth or viability, MTT): > 200 µM
CCN1CC2(COC)CCC(O)C34C5CC6C(OC)CC(O)(C5C6OC(C)=O)C(C(OC)C23)C14 (stereo not shown)  IC50 (HBE; cell growth or viability, MTT): 29.6 µM
C[C@H]1[C@H](OC(=O)CCC(=O)O[C@H]2CO[C@H]3[C@@H]2OC[C@H]3O[N+](=O)[O-])O[C@@H]2O[C@@]3(C)CC[C@H]4[C@H](C)CC[C@@H]1[C@@]24OO3  IC50 (L02; cell growth or viability, CCK-8; 72 h): 3.08 µM
CNC(=O)c1cc(Oc2ccc(NC(=O)c3ccc(-c4ccccc4OC(=O)CCC(=O)OC4OC5OC6(C)CCC7C(C)CCC(C4C)C57OO6)cn3)cc2)ccn1 (stereo not shown)  IC50 (L02; cell growth or viability, MTT; 72 h): > 100 µM
CCN1CC2(COC)CCC(OC)C34C5CC6C(OC)CC(C5C6O)C(C(OC)C23)C14 (stereo not shown)  IC50 (HBE; cell growth or viability, MTT): 21.2 µM
CN(C)C(=O)[C@H]1NC(=O)c2cnccc2-c2ccc(cc2)C(F)(F)CCCC(F)(F)c2cccc1c2  IC50 (KHYG-1 with Ba/F3-MICA cells; NKG2D-mediated cell killing, inhibitor; 6 h): 1.6 ± 0.2 µM
C[C@H]1C(OCCCCCC[P+](c2ccccc2)(c2ccccc2)c2ccccc2)O[C@@H]2O[C@@]3(C)CCC4[C@H](C)CCC1[C@]42OO3 (stereo partly shown)  IC50 (HUVEC; cell viability, MTT; 72 h): 0.322 ± 0.0102 µM
C[C@H]1[C@H](OC(=O)CCC(=O)OCCc2ccc(O)cc2)O[C@@H]2O[C@@]3(C)CC[C@H]4[C@H](C)CC[C@@H]1[C@@]24OO3  IC50 (C3PV; cell growth or viability, MTT; 24 h): 132 µM
O=C(C[P+]([Au-][Cl])(c1ccccc1)c1ccccc1)[O][Ti+2][O]C(=O)C[P+]([Au-][Cl])(c1ccccc1)c1ccccc1.c1cc[cH-]c1.c1cc[cH-]c1  IC50 (HEK-293T; cell growth or viability, XTT; 24 h): 24 µM
O=C1C(Cl)=C(Cl)C(=O)c2ccccc21  IC50 (HuCC-A1; cell growth or viability, MTT): 34.7 µM
CCCCN1CCNC1=[S+][Ag-3]([O][N+](=O)[O-])([P+](c1ccccc1)(c1ccccc1)c1ccccc1)[P+](c1ccccc1)(c1ccccc1)c1ccccc1  IC50 (MG-63; MTT; 24 h): 9.21 µM
CC1=CC(C)=[N+]2C1=Cc1ccc(CCC(=O)NCC3C[NH][Pt]([Cl])([Cl])[NH]3)n1[B-]2(F)F (stereo not shown)  IC50 (KB-3-1; cell viability, CellTiter-Glo; 72 h, DMF solvent): 35.7 ± 1.5 µM
COCC12CCC(OC)C34C5CC6(O)C(O)C5C(O)(C(O)C6OC)C(C(OC)C13)C4N(C)C2 (stereo not shown)  IC50 (HBE; cell growth or viability, MTT): 24.8 µM
Cc1cc(O)cc(-c2nc(Nc3cc(C(F)(F)F)cc(C(F)(F)F)c3)ncc2-c2ccnc(Cl)c2)c1  IC50 (HT-29; 72 h): 7.5 ± 0.5 µM
CCN1CC2(COC)C(O)CC(OC)C34C5CC6(O)C(OC)C(O)C(O)(C5C6OC(=O)c5ccccc5)C(C(OC)C23)C14 (stereo not shown)  IC50 (NCI-H460; cell growth or viability, MTT): 18.9 µM
O=C(Nc1ccc(Br)cc1)c1cc(Br)cc(Br)c1O  IC50 (NIH3T3; cell growth or viability, resazurin; 72 h): 11.5 µM
CCN1CC2(COC)CCC(O)C34C5CC(C(CO)OC)CC5C(=O)C(C(OC)C23)C14 (stereo not shown)  IC50 (HBE; cell growth or viability, MTT): 26.9 µM
Cc1cc([C@H](NC(=O)c2cnccc2-c2ccc(C(F)(F)F)cc2)C(=O)N(C)C)cc(C(F)(F)F)c1  IC50 (KHYG-1 with Ba/F3-MICA cells; NKG2D-mediated cell killing, inhibitor; 6 h): 0.2 ± 0.2 µM
